Measured values gathered from unrelated publications.
Compare with care: the assays were run in different laboratories. Values joined by “and” are separate records of one study, mostly repeats; a detail may differ. ± gives the spread as reported.
UniProt Q8WUM0, sequence (whole entry, looked up): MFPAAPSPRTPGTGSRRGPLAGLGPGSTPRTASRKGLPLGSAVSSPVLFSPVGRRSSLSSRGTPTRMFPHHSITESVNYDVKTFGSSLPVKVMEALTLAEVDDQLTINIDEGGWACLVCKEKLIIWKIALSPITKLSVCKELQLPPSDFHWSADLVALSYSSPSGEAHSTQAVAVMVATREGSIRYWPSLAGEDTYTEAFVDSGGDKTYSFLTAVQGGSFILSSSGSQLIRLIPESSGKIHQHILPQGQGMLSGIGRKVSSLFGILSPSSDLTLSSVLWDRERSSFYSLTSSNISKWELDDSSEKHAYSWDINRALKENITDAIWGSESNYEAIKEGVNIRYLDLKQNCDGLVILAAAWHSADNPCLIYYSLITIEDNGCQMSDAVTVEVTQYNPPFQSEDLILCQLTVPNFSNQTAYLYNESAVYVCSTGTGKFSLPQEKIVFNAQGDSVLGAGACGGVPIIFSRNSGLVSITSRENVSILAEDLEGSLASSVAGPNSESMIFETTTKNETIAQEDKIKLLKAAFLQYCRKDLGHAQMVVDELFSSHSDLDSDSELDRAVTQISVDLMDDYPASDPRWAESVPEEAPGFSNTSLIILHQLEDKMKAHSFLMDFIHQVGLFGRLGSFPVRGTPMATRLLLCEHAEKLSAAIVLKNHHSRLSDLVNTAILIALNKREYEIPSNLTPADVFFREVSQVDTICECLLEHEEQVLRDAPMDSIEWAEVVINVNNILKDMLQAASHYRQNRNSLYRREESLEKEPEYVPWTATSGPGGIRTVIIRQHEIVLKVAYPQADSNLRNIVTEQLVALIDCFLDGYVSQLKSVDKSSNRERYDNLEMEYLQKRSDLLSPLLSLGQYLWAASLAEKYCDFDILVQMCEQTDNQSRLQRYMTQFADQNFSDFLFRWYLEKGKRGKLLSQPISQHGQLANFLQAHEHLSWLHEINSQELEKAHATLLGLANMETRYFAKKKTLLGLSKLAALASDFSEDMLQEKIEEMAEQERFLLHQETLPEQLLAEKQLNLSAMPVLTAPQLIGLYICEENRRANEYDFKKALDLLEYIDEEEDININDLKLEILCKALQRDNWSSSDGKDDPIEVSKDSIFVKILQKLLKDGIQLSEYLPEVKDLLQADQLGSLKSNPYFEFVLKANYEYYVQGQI
UniProt P23204, sequence (whole entry, looked up): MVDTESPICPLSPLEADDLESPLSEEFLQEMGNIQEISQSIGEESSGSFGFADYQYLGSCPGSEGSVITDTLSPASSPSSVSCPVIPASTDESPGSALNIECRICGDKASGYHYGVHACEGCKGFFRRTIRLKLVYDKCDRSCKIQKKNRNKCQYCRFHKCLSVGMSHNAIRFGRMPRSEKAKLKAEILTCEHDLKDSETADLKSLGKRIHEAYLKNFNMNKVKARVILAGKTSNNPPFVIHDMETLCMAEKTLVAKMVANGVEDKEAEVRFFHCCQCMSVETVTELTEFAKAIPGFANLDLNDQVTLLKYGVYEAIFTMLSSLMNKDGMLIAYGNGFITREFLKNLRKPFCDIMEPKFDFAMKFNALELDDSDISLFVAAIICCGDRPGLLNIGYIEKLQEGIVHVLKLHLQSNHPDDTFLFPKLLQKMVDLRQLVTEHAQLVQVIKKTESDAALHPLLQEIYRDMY
UniProt Q96SW2, sequence (whole entry, looked up): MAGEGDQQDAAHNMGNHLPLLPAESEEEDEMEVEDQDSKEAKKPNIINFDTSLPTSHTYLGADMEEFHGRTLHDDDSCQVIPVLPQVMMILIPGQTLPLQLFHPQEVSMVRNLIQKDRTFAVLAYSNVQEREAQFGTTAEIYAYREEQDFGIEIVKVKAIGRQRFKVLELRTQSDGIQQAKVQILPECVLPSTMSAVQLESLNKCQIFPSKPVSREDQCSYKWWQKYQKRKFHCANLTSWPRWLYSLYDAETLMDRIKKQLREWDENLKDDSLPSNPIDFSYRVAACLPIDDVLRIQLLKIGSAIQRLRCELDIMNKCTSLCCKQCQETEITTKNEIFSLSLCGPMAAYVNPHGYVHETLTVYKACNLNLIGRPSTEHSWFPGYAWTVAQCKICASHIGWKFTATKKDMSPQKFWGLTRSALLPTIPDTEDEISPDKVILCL
UniProt P14618, sequence (whole entry, looked up): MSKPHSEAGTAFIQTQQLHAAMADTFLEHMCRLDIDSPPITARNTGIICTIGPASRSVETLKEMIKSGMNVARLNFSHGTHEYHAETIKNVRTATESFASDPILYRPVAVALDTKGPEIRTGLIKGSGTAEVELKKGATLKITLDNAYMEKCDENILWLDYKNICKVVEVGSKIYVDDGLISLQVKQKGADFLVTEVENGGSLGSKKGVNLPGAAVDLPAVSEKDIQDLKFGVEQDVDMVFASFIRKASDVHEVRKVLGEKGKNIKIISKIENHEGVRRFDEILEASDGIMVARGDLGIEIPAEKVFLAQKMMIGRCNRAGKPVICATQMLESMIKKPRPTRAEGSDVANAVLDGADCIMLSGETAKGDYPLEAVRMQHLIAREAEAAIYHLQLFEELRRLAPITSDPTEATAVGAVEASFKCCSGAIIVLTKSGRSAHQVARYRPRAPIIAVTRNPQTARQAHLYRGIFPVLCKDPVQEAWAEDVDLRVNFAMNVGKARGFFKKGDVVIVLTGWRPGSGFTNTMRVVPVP
UniProt P30291, sequence (whole entry, looked up): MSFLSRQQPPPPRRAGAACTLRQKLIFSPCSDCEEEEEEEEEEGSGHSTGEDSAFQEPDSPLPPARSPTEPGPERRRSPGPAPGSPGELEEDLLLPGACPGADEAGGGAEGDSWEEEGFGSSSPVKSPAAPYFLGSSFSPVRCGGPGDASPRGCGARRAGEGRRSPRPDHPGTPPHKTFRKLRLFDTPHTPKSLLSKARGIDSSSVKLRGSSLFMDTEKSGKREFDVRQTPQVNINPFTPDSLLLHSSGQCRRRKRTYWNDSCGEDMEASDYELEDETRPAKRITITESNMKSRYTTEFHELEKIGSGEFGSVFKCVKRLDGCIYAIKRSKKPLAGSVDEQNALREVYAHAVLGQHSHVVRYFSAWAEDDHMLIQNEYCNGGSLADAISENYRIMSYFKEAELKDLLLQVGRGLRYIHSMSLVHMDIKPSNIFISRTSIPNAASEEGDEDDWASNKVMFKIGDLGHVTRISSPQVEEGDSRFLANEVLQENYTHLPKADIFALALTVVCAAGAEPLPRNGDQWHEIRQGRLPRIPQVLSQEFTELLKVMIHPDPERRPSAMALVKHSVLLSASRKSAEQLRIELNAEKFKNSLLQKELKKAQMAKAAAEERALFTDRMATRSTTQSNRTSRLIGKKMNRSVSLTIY
UniProt P31749, sequence (whole entry, looked up): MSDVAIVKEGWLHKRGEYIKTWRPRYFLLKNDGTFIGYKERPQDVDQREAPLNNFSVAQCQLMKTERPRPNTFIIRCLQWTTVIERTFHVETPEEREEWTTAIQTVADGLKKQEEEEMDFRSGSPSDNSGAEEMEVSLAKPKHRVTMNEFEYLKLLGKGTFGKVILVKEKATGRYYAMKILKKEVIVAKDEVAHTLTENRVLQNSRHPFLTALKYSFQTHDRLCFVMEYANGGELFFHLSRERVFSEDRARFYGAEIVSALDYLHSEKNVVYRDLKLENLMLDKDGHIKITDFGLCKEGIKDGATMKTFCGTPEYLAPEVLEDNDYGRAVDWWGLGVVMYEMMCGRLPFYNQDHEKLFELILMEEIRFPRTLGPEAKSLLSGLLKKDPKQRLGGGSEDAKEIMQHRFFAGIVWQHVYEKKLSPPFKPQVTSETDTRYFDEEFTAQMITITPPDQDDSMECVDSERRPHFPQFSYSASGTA
UniProt Q15831, sequence (whole entry, looked up): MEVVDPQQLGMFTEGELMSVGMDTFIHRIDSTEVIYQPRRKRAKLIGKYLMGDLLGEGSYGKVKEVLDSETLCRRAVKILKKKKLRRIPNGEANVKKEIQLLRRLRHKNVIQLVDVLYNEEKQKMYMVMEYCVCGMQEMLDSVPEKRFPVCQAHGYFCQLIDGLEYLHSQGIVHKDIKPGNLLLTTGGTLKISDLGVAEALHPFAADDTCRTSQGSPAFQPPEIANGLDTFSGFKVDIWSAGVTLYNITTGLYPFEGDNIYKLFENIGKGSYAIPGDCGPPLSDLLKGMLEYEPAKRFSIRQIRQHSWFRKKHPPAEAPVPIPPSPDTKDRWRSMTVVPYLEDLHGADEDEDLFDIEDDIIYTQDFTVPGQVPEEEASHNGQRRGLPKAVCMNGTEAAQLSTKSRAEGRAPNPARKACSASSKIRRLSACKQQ
UniProt Q704Y3, sequence (whole entry, unmodified, looked up): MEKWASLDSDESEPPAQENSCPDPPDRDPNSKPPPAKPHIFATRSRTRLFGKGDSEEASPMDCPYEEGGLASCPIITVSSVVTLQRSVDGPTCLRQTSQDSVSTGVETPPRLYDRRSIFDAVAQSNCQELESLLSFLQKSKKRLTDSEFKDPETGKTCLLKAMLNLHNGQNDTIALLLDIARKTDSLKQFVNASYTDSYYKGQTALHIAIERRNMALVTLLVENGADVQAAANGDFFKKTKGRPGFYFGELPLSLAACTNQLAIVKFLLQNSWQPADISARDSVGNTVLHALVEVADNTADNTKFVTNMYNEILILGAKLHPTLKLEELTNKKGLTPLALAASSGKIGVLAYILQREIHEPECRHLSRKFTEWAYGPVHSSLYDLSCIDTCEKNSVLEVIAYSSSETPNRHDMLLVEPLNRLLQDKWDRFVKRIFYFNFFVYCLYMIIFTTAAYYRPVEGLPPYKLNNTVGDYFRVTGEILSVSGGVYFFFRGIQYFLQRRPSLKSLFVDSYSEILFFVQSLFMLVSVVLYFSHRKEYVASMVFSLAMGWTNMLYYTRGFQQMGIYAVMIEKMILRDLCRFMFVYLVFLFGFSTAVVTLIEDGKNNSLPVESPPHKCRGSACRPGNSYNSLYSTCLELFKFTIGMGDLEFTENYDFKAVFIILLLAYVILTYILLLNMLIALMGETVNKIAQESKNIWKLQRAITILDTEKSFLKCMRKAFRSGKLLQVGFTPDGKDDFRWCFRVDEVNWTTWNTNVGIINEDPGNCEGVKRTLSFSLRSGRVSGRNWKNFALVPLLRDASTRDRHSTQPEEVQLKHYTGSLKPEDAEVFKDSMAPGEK

Cc1cc(-c2ccnc3[nH]cc(F)c23)cc(F)c1[C@@]1(O)[C@H](C)CN(C(=O)CN)C[C@@H]1C — probe labelling inhibition (AKT1 (Homo sapiens, UniProt P31749); ATP/ADP probe binding, KiNativ; HEK293T lysate; 0.1 µM, ATP loop peptide): -2.7%
Nc1nnc(-c2ccccc2O)cc1N1CCN(Cc2ccc(OCCOCCNc3cccc4c3C(=O)N(C3CCC(=O)NC3=O)C4=O)c(F)c2)CC1 (stereo not shown) — Dmax (SMARCA4 (Homo sapiens, UniProt P51532); degrader, immunoblot; SMARCA4 wild-type lung cancer cells; 96 h, median of twelve cell lines): 35%
CCCCCCCC/C=C\CCCCCCCC(=O)NCCc1ccc(O)c(O)c1 — maximal open probability (Trpv1 (Mus musculus, UniProt Q704Y3, S513A); ion current, agonist, whole-cell patch clamp; relative to: 3 mM 2-APB current): 0.56 ± 0.06
CCO[C@@H](Cc1ccc(OCCn2c(C)ccc2-c2ccc(SC)cc2)cc1)C(=O)O — Emax (Ppara (Mus musculus, UniProt P23204); receptor activation, agonist; species mouse; relative to: internal control agonist): 109%
CC[C@H](C)[C@H](NC(=O)[C@H](Cc1ccccc1)NC(=O)[C@H](CCC(=O)O)NC(=O)[C@H](CCCNC(=N)N)NC(=O)[C@H](C)NC(=O)[C@H](C)NC(=O)[C@H](CCC(N)=O)NC(=O)[C@H](CCC(=O)O)NC(=O)[C@H](CCC(=O)O)NC(=O)[C@H](CC(C)C)NC(=O)[C@H](Cc1ccc(O)cc1)NC(=O)[C@H](CO)NC(=O)[C@H](CO)NC(=O)[C@@H](NC(=O)[C@H](CC(=O)O)NC(=O)[C@H](CO)NC(=O)[C@@H](NC(=O)[C@H](Cc1ccccc1)NC(=O)[C@@H](NC(=O)CNC(=O)[C@H](CCC(=O)O)NC(=O)[C@H](C)NC(=O)CCc1cnc[nH]1)[C@@H](C)O)[C@@H](C)O)C(C)C)C(=O)N[C@@H](C)C(=O)N[C@@H](Cc1c[nH]c2ccccc12)C(=O)N[C@@H](CC(C)C)C(=O)N[C@H](C(=O)N[C@@H](CCCCNC(=O)COCCOCCNC(=O)COCCOCCNC(=O)CC[C@H](NC(=O)CCCCCCCCCCCCCCCCC(=O)O)C(=O)O)C(=O)NCC(=O)N[C@@H](CCCNC(=N)N)C(=O)N[C@@H](CCCCNc1c(NCCCCCN(O)C(=O)CCC(=O)NCCCCCN(O)C(=O)CCC(=O)NCCCCCN(O)C(C)=O)c(=O)c1=O)C(=O)NCC(=O)NCC(=O)N[C@@H](CO)C(=O)N[C@@H](CCCCNc1c(NCCCCCN(O)C(=O)CCC(=O)NCCCCCN(O)C(=O)CCC(=O)NCCCCCN(O)C(C)=O)c(=O)c1=O)C(=O)NCC(=O)NCC(=O)N[C@@H](CO)C(=O)N[C@@H](CCCCNc1c(NCCCCCN(O)C(=O)CCC(=O)NCCCCCN(O)C(=O)CCC(=O)NCCCCCN(O)C(C)=O)c(=O)c1=O)C(=O)NCC(=O)NCC(=O)N[C@@H](CO)C(=O)N[C@@H](CCCCNc1c(NCCCCCN(O)C(=O)CCC(=O)NCCCCCN(O)C(=O)CCC(=O)NCCCCCN(O)C(C)=O)c(=O)c1=O)C(=O)O)C(C)C — fold potency loss (GLP1R (Homo sapiens, UniProt P43220); agonist, CRE luciferase reporter; BHK cells; Zr-loaded DFO conjugate, with: 0% HSA; relative to: parent peptide): 6.3
O=C([O-])CN(CCN(CC(=O)[O-])Cc1cc(CCC(=O)NCCCCCC(=O)NCCCC[C@H](NC(=O)N[C@@H](CCC(=O)O)C(=O)O)C(=O)O)ccc1[O-])Cc1cc(CCC(=O)O)ccc1[O-].[68Ga+3].[OH3+] — Bmax (FOLH1 (Homo sapiens, UniProt Q04609); radioligand, saturation binding; LNCaP; 1 h, 37 °C, with: [99mTc]TcO-6): 19.8 ± 2.4 pmol/mg
O=C(COP(=O)(O)O)[C@@H](O)[C@H](O)[C@H](O)COP(=O)(O)O — thermal stability ratio (Nuclear pore complex protein Nup133 (NUP133, Homo sapiens, UniProt Q8WUM0); thermal proteome profiling, item: NUP133; HepG2 cell lysate; concentration not given, 57 over 37 °C; relative to: compound over control): 0.6 and 0.778 and 0.389
CC[C@@H]1[C@H](F)C(=O)N[C@@H]1COc1nccc2cc(C(N)=O)c(OC)cc12 — inhibition (STK11 (Homo sapiens, UniProt Q15831); ATP-site probe binding, ActivX profiling; THP-1 cell lysate; 0.01 mM, Lys2 site): -0.5%
C=CCn1c(=O)c2cnc(Nc3ccc(N4CCN(CCCNc5cccc6c5C(=O)N(C5CCC(=O)NC5=O)C6=O)CC4)cc3)nc2n1-c1cccc(C(C)(C)O)n1 (stereo not shown) — concentration at peak FRET signal (WEE1/CRBN (Homo sapiens, UniProt P30291+Q96SW2); formation, ternary complex, WEE1-CRBN, degrader, TR-FRET): ~300 nM
O=C(COP(=O)(O)O)[C@@H](O)[C@H](O)[C@H](O)COP(=O)(O)O — minimum concentration, maximal activation (Pyruvate kinase PKM (PKM, Homo sapiens, UniProt P14618); pyruvate kinase activity, activator; RKO cell lysate; without AIM): 273 ± 129 nM

A few entries again:
C=CCn1c(=O)c2cnc(Nc3ccc(N4CCN(CCCNc5cccc6c5C(=O)N(C5CCC(=O)NC5=O)C6=O)CC4)cc3)nc2n1-c1cccc(C(C)(C)O)n1 (stereo not shown) — concentration at peak FRET signal (WEE1/CRBN (Homo sapiens, UniProt P30291+Q96SW2); formation, ternary complex, WEE1-CRBN, degrader, TR-FRET): ~300 nM
